# Results of several laboratories.
# Every numbered part comes from another study and shows a few of its results, in no order. Changes are numbered by the printed parent chain.

# Series 1
# Target: CCNE2, cyclin fold, Cln2 fusion (human)
# Technique: yeast growth competition, sequencing
# Matrix: yeast
# Notes: weak parent motif
# Reference: not given
# Direction: higher = stronger binding
# Parent: E2F7 docking peptide (human); SSAQRRLEIPSGG
Change,normalised enrichment score
R5K I9L,0.0291
L7A,-0.259
I9F,2.26
G13A,0.393
R5K,-0.315
S1A,0.333
S2A,-0.0138
S11A,-0.132

# Series 2
# Target: JUN, bZIP domain (human)
# Technique: DHFR protein complementation
# Matrix: yeast
# Notes: single substitutions, most at no-binding floor
# Reference: wild-type JUN-FOS pair
# Direction: higher = stronger binding
# Parent: JUN, bZIP domain (human); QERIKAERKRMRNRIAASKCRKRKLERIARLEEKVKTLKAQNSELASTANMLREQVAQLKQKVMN; partner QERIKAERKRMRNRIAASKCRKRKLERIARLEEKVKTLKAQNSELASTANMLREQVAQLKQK
Change,binding fitness [natural log]
I28M,-0.454
T37Q,0.0504
L59A,-0.758
E54I,-0.417
E54N,-0.443
K36T,-0.417
M51I,-0.242
S47Y,-0.261

# Series 3
# Target: Hepatocyte nuclear factor 3-beta, forkhead domain (FOXA2, Homo sapiens, UniProt Q9Y261, residues 142-269)
# Technique: protein-binding microarray
# Molecule type: double-stranded DNA, one strand shown
# Matrix: in vitro
# Concentration: not given
# Notes: k-mer, scored over probes, only values ≥0.25
# Direction: higher = stronger binding
# Target sequence (chain): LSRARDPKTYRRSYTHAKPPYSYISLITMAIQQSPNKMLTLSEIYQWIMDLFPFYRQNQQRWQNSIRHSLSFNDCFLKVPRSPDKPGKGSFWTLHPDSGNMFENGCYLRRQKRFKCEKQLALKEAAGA
Sequence,E-score
AACATTAT,0.351
ATGTTGTG,0.309
TATTTAAA,0.317
ATTTCCTA,0.348
ACGTATTA,0.335
ATACAGTG,0.263
ACTATAAT,0.292
TAACAATA,0.377

# Further values, each from its own experiment
Sequence,target,assay,system,setting,measurement,value
WLGHPFTPV,"HLA class I histocompatibility antigen, A alpha chain, allele A*25:01 (Homo sapiens, UniProt P04439)",peptide-MHC binding,peptide,concentration not given,binding,inactive

# A few entries again (series 3):
Sequence,E-score
AACATTAT,0.351
ATGTTGTG,0.309
